# Published values of several laboratories.
# Parts stem from different laboratories: compare values within a part only. Values joined by “and” are separate records of one study, mostly repeats; a detail may differ.
# UniProt Q99808, sequence (whole entry, unmodified, looked up): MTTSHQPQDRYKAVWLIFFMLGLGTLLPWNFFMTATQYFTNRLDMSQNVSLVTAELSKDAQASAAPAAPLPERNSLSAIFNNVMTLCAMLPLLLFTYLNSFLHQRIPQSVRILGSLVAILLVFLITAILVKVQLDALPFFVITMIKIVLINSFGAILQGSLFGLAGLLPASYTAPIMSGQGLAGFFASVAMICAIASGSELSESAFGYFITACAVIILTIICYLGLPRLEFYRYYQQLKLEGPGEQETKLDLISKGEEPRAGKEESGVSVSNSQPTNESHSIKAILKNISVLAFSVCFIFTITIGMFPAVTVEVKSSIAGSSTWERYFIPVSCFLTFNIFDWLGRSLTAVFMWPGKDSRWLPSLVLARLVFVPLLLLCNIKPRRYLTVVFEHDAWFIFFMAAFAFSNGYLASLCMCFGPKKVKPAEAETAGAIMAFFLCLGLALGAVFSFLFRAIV
# UniProt Q15208, sequence (whole entry, looked up): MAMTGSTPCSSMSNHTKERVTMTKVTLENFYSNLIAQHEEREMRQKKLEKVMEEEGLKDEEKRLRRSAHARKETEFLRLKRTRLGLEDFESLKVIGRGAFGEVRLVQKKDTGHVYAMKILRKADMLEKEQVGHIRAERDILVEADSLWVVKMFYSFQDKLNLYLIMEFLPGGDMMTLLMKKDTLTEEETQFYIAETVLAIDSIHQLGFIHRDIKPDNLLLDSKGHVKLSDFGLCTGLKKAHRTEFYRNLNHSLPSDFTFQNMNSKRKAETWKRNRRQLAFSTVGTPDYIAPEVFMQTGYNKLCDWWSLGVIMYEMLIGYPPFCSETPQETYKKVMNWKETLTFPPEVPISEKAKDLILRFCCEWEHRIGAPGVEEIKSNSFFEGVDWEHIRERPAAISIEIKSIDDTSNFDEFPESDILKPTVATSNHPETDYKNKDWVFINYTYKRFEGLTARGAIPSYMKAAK
# UniProt Q9UHD2, sequence (whole entry, looked up): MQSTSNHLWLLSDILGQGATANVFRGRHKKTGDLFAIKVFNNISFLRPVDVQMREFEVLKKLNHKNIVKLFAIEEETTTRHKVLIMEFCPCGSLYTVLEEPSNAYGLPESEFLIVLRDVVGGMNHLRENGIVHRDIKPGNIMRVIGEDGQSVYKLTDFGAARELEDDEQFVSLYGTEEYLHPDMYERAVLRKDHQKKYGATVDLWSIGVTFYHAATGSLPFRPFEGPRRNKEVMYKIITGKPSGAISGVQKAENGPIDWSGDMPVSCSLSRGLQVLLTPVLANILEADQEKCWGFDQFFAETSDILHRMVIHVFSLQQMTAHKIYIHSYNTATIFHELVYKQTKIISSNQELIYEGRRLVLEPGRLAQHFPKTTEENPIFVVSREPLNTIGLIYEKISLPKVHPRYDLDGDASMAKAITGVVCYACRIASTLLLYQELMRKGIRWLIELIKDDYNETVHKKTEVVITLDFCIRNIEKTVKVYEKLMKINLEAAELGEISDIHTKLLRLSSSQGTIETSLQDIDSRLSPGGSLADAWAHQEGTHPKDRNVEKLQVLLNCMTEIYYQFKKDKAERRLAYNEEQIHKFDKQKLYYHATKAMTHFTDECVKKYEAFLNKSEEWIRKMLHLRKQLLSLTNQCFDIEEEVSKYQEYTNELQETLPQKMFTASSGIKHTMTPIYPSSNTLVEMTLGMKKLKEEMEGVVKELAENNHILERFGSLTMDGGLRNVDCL
# UniProt P27037, sequence (whole entry, looked up): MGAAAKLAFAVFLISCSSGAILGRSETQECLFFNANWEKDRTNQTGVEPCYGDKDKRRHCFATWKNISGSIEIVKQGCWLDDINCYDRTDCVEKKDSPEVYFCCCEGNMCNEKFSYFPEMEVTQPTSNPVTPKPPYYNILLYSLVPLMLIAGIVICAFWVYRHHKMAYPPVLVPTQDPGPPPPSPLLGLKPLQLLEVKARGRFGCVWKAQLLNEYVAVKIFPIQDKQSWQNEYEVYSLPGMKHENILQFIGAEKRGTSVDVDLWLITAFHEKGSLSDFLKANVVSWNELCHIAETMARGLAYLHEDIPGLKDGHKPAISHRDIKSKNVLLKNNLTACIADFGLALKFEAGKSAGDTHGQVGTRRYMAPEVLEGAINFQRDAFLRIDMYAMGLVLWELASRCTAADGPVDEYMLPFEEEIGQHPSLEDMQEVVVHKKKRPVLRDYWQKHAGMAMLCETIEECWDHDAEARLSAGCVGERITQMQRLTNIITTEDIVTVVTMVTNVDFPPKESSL
# UniProt Q9NWZ3, sequence (whole entry, looked up): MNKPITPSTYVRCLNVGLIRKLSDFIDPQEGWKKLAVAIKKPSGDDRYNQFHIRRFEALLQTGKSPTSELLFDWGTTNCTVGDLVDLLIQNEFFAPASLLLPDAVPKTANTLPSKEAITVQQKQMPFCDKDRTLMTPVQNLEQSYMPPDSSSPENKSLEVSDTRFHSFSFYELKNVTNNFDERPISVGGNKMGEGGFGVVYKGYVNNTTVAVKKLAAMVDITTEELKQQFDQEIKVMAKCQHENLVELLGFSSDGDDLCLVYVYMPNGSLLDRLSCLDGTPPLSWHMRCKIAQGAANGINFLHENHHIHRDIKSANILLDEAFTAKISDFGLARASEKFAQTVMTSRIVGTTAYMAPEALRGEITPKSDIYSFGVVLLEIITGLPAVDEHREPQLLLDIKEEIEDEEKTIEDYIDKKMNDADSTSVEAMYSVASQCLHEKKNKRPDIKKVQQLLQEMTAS

# Study 1
# Compound: CCC1(c2cccc(-c3cn(C)nc3C)c2)C2=C(Nc3n[nH]cc31)C(F)C(C)(C)CC2=O (single isomer, unassigned)
# Concentration: 1 µM
target,observed,technique,relative to,remaining binding
"Mitogen-activated protein kinase kinase kinase 20 (MAP3K20, Homo sapiens, UniProt Q9NYL2)",binding,competition with immobilised ligand,,100%
"Mitogen-activated protein kinase 9 (MAPK9, Homo sapiens, UniProt P45984)",kinase binding,KINOMEscan,DMSO control,100%
"Mitogen-activated protein kinase 12 (MAPK12, Homo sapiens, UniProt P53778)",kinase binding,KINOMEscan,DMSO control,100%
"Mitogen-activated protein kinase kinase kinase 19 (MAP3K19, Homo sapiens, UniProt Q56UN5)",kinase binding,KINOMEscan,DMSO control,100%
"Mast/stem cell growth factor receptor Kit (KIT, Homo sapiens, UniProt P10721, V559D/V654A)",kinase binding,KINOMEscan,DMSO control,98%
"Inhibitor of nuclear factor kappa-B kinase subunit epsilon (IKBKE, Homo sapiens, UniProt Q14164)",binding,competition with immobilised ligand,,100%
"Cyclin-dependent kinase 2 (CDK2, Homo sapiens, UniProt P24941)",kinase binding,KINOMEscan,DMSO control,100%
"Serine/threonine-protein kinase 38 (STK38, Homo sapiens, UniProt Q15208)",kinase binding,KINOMEscan,DMSO control,94%
"Dual specificity tyrosine-phosphorylation-regulated kinase 1B (DYRK1B, Homo sapiens, UniProt Q9Y463)",kinase binding,KINOMEscan,DMSO control,93%
"Platelet-derived growth factor receptor alpha (PDGFRA, Homo sapiens, UniProt P16234)",kinase binding,KINOMEscan,DMSO control,100%
"Fibroblast growth factor receptor 3 (FGFR3, Homo sapiens, UniProt P22607, G697C)",binding,competition with immobilised ligand,,100%

# Study 2
# SMILES: Cc1ncsc1-c1ccc(C(CO)NC(=O)C2CC(O)CN2C(=O)C(C(C)C)n2cc(-c3ccc(COc4c(-c5c(C)c(F)cc6[nH]ncc56)c(C5CC5)cc5c(N6CC7CC6CN7)nc(OC6CCOCC6)nc45)cc3)nn2)cc1 (stereo not shown)
cell line,host,route,dose,time,tumour volume
HPAC xenograft,mouse,,30 mg/kg once weekly,day 7,342 mm3 and 260 mm3 and 284 mm3 and 252 mm3 and 402 mm3
,"mouse, PK-59 xenograft",,30 mg/kg,day 4,291 mm3 and 220 mm3 and 269 mm3 and 214 mm3 and 247 mm3
,"mouse, lung LXFA sample A PDX",,30 mg/kg twice weekly,day 9,111 mm3 and 16 mm3 and 72.3 mm3 and 95.5 mm3 and 117 mm3 and 148 mm3 and 49.5 mm3 and 88.7 mm3
GP2d xenograft,mouse,,30 mg/kg twice weekly,day 4,193 mm3 and 202 mm3 and 223 mm3 and 155 mm3 and 206 mm3
,"mouse, PK-59 xenograft",,0.3 mg/kg,day 21,1470 mm3 and 1880 mm3 and 1790 mm3 and 2110 mm3 and 1850 mm3
GP5d xenograft,mouse,,30 mg/kg once weekly,day 11,237 mm3 and 161 mm3 and 208 mm3 and 150 mm3 and 168 mm3
,"mouse, HT-29 xenograft",sc,30 mg/kg once daily,day 13,575 mm3 and 690 mm3 and 914 mm3 and 709 mm3 and 869 mm3
,"mouse, PK-59 xenograft",subcutaneous,30 mg/kg once daily,day 20,38.6 mm3 and 38.1 mm3 and 29.1 mm3 and 39.4 mm3 and 43.4 mm3

# Study 3
# Compound: C[C@@H]1CN(c2ccc(-c3cc(C(=O)NCCOCCOCCOCCOCCOCCOCCNC(=O)/C=C/c4[nH]cc(C(=O)N[C@@H](CC(N)=O)c5ccc(F)c(Cl)c5)c4-c4ccc(Cl)cc4F)ccc3F)cc2NC(=O)c2ccc(F)cc2C(F)(F)F)C[C@H](C)N1C
# Observed: thermal unfolding
# Technique: differential scanning fluorimetry
# Concentration: 5.5 µM
# Direction: higher = more unfolded
# DCAF1: DDB1- and CUL4-associated factor 1 (DCAF1, Homo sapiens, UniProt Q9Y4B6)
# UniProt Q9Y4B6, sequence (whole entry, looked up): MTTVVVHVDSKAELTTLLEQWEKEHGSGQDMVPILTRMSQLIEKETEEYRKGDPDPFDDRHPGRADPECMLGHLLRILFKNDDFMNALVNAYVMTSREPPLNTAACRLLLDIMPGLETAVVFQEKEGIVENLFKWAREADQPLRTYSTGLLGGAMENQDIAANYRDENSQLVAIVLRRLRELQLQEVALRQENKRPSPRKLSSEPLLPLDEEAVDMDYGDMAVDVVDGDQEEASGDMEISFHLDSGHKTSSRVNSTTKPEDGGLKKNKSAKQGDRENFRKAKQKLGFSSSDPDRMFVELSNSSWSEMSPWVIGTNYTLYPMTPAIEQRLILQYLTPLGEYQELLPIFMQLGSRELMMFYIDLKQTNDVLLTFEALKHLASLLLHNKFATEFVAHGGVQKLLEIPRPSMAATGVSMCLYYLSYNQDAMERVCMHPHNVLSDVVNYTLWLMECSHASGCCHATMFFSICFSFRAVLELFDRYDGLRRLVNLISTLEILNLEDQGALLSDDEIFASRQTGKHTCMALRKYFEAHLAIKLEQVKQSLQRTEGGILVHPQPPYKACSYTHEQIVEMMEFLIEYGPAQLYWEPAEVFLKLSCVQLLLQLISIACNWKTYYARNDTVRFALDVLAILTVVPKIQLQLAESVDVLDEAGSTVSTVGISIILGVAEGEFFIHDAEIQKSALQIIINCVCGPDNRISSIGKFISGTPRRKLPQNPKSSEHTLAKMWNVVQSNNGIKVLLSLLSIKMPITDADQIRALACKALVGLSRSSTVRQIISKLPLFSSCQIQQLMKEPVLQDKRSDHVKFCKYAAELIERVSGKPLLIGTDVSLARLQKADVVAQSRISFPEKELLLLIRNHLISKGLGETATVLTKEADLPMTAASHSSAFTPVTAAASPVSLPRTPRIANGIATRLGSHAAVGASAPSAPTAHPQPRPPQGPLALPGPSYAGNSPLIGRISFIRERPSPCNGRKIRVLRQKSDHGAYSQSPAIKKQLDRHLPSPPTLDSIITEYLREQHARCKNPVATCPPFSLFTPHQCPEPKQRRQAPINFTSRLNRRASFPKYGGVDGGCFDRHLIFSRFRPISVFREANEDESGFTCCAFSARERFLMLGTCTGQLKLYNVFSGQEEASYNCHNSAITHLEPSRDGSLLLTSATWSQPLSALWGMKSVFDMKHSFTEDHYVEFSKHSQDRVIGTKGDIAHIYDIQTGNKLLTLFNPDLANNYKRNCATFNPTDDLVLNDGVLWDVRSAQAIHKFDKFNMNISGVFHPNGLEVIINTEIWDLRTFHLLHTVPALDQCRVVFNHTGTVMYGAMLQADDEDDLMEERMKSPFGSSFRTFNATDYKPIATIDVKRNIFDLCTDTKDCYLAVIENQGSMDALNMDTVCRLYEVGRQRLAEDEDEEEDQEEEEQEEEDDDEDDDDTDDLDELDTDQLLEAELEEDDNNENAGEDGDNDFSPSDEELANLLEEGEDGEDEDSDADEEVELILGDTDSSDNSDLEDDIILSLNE
# WDR5: WD repeat-containing protein 5 (WDR5, Homo sapiens, UniProt P61964)
target,temperature,SYPRO Orange fluorescence
DCAF1,33.6 °C,9430 a.u.
DCAF1,62.81 °C,53700 a.u.
DCAF1,70.21 °C,48100 a.u.
DCAF1,49.4 °C,17600 a.u.
DCAF1,54.61 °C,25900 a.u.
WDR5,85.21 °C,61800 a.u.
DCAF1,69.41 °C,48900 a.u.
DCAF1,72.41 °C,46100 a.u.
DCAF1,72.21 °C,46200 a.u.
WDR5,69.41 °C,25400 a.u.
DCAF1,34.8 °C,9830 a.u.

# Study 4
# SMILES: CCN1/C(=C/C=C2\CCCC(/C=C/C3=[N+](CC)c4ccccc4C3(C)C)=C2NCCCCCCCCN2CCC(Nc3nc4ccccc4n3Cc3ccc(F)cc3)CC2)C(C)(C)c2ccccc21
# Cell line: U-87 MG
# Concentration: concentration not given
# Relative to: DMSO
refers to,log2 fold change
CCNB1 mRNA,-2.23
TBX18 mRNA,-1.04
BUB1B mRNA,-2.02
DDIT3 mRNA,2.46
TRABD2A mRNA,-1.68
EPPIN-WFDC6 mRNA,-6.03
NDC80 mRNA,-1.87
SGTB mRNA,1.91
NMT2 mRNA,-0.845
C1QTNF2 mRNA,-2.79
CALHM5 mRNA,-1.35
COL5A2 mRNA,-1.86
CNNM4 mRNA,1.09
GOLGA6L9 mRNA,1.24
FGFBP1 mRNA,-4.02
EBF2 mRNA,-1.3

# Study 5
# Compound: CCN1C(=O)C(O)(C(=O)O)Oc2cc(F)ccc21 (stereo not shown)
# Organism: Arabidopsis thaliana
# Strain: Col-0
observed,medium,concentration,time,notes,relative to,inhibition
hypocotyl length,seedlings,100 µg/mL,,,,48.6%
root length,seedlings,6.25 µg/mL,,,water control,17%
hypocotyl length,,100 µg/mL,7 days,"seed germination, dark",,48.6%
hypocotyl length,seedlings,12.5 µg/mL,,,,22.5%
hypocotyl length,,12.5 µg/mL,7 days,"seed germination, dark",,22.5%

# Study 6
# Structure (SMILES): CNc1ncc2cc(-c3cc(OC)cc(OC)c3Cl)c(=O)n(CCc3ccc(NC(=O)C(C#N)=CC(C)(C)N4CCOCC4)cc3)c2n1
# Observed: kinase activity
target,concentration,inhibition
"Cyclin-dependent kinase 6, with cyclin D3 (CDK6, Homo sapiens, UniProt Q00534)",1 µM,19%
"Death-associated protein kinase 1 (DAPK1, Homo sapiens, UniProt P53355)",1 µM,0%
"3-phosphoinositide-dependent protein kinase 1 (PDPK1, Homo sapiens, UniProt O15530)",1 µM,2%
"Eukaryotic translation initiation factor 2-alpha kinase 3 (EIF2AK3, Homo sapiens, UniProt Q9NZJ5)",1 µM,72%
"Ribosomal protein S6 kinase alpha-4 (RPS6KA4, Homo sapiens, UniProt O75676)",1 µM,0%
"Protein kinase C beta type, isoform beta-I (PRKCB, Homo sapiens, UniProt P05771)",0.1 µM,1%
"Rho-associated protein kinase 2 (ROCK2, Homo sapiens, UniProt O75116)",1 µM,-10%
"SRSF protein kinase 2 (SRPK2, Homo sapiens, UniProt P78362)",1 µM,-2%
"Receptor-type tyrosine-protein kinase FLT3 (FLT3, Homo sapiens, UniProt P36888)",0.1 µM,1%
"Tyrosine-protein kinase Fyn (FYN, Homo sapiens, UniProt P06241)",1 µM,9%
"Leukocyte tyrosine kinase receptor (LTK, Homo sapiens, UniProt P29376)",1 µM,1%
"Receptor tyrosine-protein kinase erbB-4 (ERBB4, Homo sapiens, UniProt Q15303)",1 µM,-3%
"High affinity nerve growth factor receptor (NTRK1, Homo sapiens, UniProt P04629)",1 µM,0%
"Serine/threonine-protein kinase 24 (STK24, Homo sapiens, UniProt Q9Y6E0)",1 µM,14%

# Study 7
# Structure (SMILES): O=C(Nc1ccccc1)Nc1cccc(Oc2ccc3nccn3n2)c1
# Observed: binding
# Concentration: 1 µM
target,technique,remaining binding
"Serine/threonine-protein kinase Nek11 (NEK11, Homo sapiens, UniProt Q8NG66)",competition with immobilised ligand,100%
"Calcium/calmodulin-dependent protein kinase type 1D (CAMK1D, Homo sapiens, UniProt Q8IU85)",,97%
"Serine/threonine-protein kinase NIM1 (NIM1K, Homo sapiens, UniProt Q8IY84)",,81%
"Protein kinase C delta type (PRKCD, Homo sapiens, UniProt Q05655)",,84%
"Serine/threonine-protein kinase RIO2 (RIOK2, Homo sapiens, UniProt Q9BVS4)",,100%
"Cyclin-dependent kinase 17 (CDK17, Homo sapiens, UniProt Q00537)",competition with immobilised ligand,95%
"Receptor-interacting serine/threonine-protein kinase 2 (RIPK2, Homo sapiens, UniProt O43353)",competition with immobilised ligand,100%
"Serine/threonine-protein kinase 38 (STK38, Homo sapiens, UniProt Q15208)",,96%
"AP2-associated protein kinase 1 (AAK1, Homo sapiens, UniProt Q2M2I8)",competition with immobilised ligand,100%
"Calcium/calmodulin-dependent protein kinase type II subunit gamma (CAMK2G, Homo sapiens, UniProt Q13555)",,97%
"MAP kinase-interacting serine/threonine-protein kinase 2 (MKNK2, Homo sapiens, UniProt Q9HBH9)",competition with immobilised ligand,100%
"Activin receptor type-2A (ACVR2A, Homo sapiens, UniProt P27037)",competition with immobilised ligand,100%
"Serine/threonine-protein kinase TBK1 (TBK1, Homo sapiens, UniProt Q9UHD2)",,90%
"Ephrin type-A receptor 8 (EPHA8, Homo sapiens, UniProt P29322)",competition with immobilised ligand,100%
"Interleukin-1 receptor-associated kinase 4 (IRAK4, Homo sapiens, UniProt Q9NWZ3)",,100%
"Ephrin type-A receptor 2 (EPHA2, Homo sapiens, UniProt P29317)",competition with immobilised ligand,70%
"Rho-associated protein kinase 1 (ROCK1, Homo sapiens, UniProt Q13464)",,100%

# Further values, each from its own experiment
# MPO: Myeloperoxidase (MPO, Homo sapiens, UniProt P05164)
# UniProt P05164, sequence (whole entry, looked up): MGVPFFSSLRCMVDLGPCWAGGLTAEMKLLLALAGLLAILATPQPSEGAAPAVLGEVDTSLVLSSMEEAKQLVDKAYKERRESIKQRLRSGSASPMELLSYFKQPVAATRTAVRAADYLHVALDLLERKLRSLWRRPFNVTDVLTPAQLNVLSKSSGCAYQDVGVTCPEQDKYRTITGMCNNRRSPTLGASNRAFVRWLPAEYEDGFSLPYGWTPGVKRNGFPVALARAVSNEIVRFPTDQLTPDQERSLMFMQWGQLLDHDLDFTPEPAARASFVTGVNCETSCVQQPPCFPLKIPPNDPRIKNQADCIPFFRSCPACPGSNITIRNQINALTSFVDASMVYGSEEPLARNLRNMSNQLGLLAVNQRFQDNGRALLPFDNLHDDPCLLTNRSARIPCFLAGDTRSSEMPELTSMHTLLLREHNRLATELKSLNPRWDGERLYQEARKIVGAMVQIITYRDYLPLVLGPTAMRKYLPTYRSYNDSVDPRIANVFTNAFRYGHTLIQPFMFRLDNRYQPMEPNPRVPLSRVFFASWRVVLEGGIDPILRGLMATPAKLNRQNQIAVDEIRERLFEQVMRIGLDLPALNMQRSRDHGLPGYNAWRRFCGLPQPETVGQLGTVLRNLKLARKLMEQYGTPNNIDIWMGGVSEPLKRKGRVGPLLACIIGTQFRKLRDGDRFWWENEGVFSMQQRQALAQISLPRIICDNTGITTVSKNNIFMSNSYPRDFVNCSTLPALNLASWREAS
Structure (SMILES),tested on,test,test system,setting,scale,measurement,result
Cc1ccc(O)c(C)c1-c1cnc2[nH]c(-c3cnc(N4CCC(CN5CCN(c6cc7c(cc6F)n(C6CCC(=O)NC6=O)c(=O)n7C)CC5)CC4)nc3)cc2c1C#N (stereo not shown),,ultracentrifugation,mouse plasma,"2 µM, 4 h, pH 7.4",,fraction unbound,0.005
C=C(CN)COc1cccc(Cn2c(=S)[nH]c(=O)c3[nH]cnc32)c1,MPO,enzyme activity,,0.0005 µM,,inhibition,-4.42% and 8.91% and 1.04%
COCC1CC2C(CCC3(C)C(O)CCC23)c2ccc(O)cc21 (stereo not shown),PANC-1,"DNA microarray, refers to: GAPDH",,"concentration not given, lower dose arm",relative to: untreated cells,log2 fold change,0.377 and 0.455 and 0.485 and 0.428 and 0.451
Cc1ccc(O)c(C)c1-c1cnc2[nH]c(-c3cnc(N4CCC(CN5CCN(c6ccc(NC7CCC(=O)NC7=O)cc6F)CC5)CC4)nc3)cc2c1C#N (stereo not shown),,,"male beagle dog, plasma","intravenous, 1 mg/kg",,clearance,6.1 mL/min/kg
COc1cc(C(=O)OCCCN2CCCN(CCCOC(=O)c3cc(OC)c(OC)c(OCc4ccc([N+](=O)[O-])cc4)c3)CC2)cc(OC)c1OC,"Equilibrative nucleoside transporter 1 (SLC29A1, Homo sapiens, UniProt Q99808, G154S)",inhibitor,Xenopus oocytes expressing SLC29A1 G154S,"unit not given, with: [3H]adenosine",relative to: untreated,adenosine uptake,0.553 and 0.644
Cc1ccc(O)c(C)c1-c1cnc2[nH]c(-c3cnc(N4CCC(CN5CCN(c6ccc7c(c6)CN(C6CCC(=O)NC6=O)C7=O)CC5)CC4)nc3)cc2c1C#N (stereo not shown),,ultracentrifugation,mouse plasma,"2 µM, 4 h, pH 7.4",,fraction unbound,0.028
O=C(CCCCn1ccnc1Cn1ccc2ccc(CNCc3[nH]c4ccccc4c3C3NC(=O)c4ccc(O)cc43)cc21)NCCOCCOCCOCCNC(=O)CCc1ccc2n1[B-](F)(F)[N+]1=C(c3ccc[nH]3)C=CC1=C2 (stereo not shown),"GTPase HRas (HRAS, Homo sapiens, UniProt P01112, G12C)",,,,,EC50,660 nM
Cc1ncc(-c2cc3c(C#N)c(-c4c(C)ccc(O)c4C)cnc3[nH]2)cn1,,,"Sprague-Dawley rat, male, plasma","oral, dose not given",,oral bioavailability,6%
NC/C(=C\F)COc1ccc(-c2cc(=O)[nH]c(=S)n2CC(N)=O)c(Cl)c1,MPO,"enzyme activity, inhibitor, fluorescence",,13.7 nM,,inhibition,9.81%

# Excerpt of the above (study 4):
refers to,log2 fold change
NDC80 mRNA,-1.87
SGTB mRNA,1.91
NMT2 mRNA,-0.845
C1QTNF2 mRNA,-2.79
CALHM5 mRNA,-1.35
COL5A2 mRNA,-1.86
CNNM4 mRNA,1.09
GOLGA6L9 mRNA,1.24
FGFBP1 mRNA,-4.02
EBF2 mRNA,-1.3
